Published values collected from several papers.
Each line is one published result; not all experiments were run side by side.

| SMILES | test | test system | setting | tmax [h] |
| --- | --- | --- | --- | --- |
| CC(=O)c1cc(C(=O)N[C@@H](C)Cn2ccc(-c3ccc(C#N)c(Cl)c3)n2)[nH]n1 |  | healthy male human, plasma | intravenous infusion, 100 µg 14C-labelled, 15 min infusion, microtracer, median | 0.5 |
| O=C([O-])CCCCCCCNC(=O)c1ccccc1O.[Na+] |  | human | oral, steady state | 0.7 |
| CN(C(=O)C(C)(C)c1cc(C(F)(F)F)cc(C(F)(F)F)c1)c1cnc(N2C[C@H]3COCCN3C[C@H]2CO)cc1-c1ccc(F)cc1[14CH3] | refers to: total radioactivity | human, plasma | oral, 120 mg | 1.5 |
| N#Cc1ccc2c(c1)[C@H]1CCCN(C(=O)c3ccc4[nH]cnc4c3)[C@H]1C2 |  | human, plasma | oral, 20 mg once daily, after first dose, median | 0.667 |
| Cc1cc(Nc2ccc(S(F)(F)(F)(F)F)cc2)n2nc(C(C)(F)F)nc2n1 | LC-MS/MS | human vivax malaria patients, plasma | oral, 400 mg, median | 6 |
| CC[C@H](C)[C@H](NC(=O)[C@H](Cc1ccccc1)NC(=O)[C@H](CCC(=O)O)NC(=O)[C@H](CCCCNC(=O)COCCOCCNC(=O)COCCOCCNC(=O)CC[C@H](NC(=O)CCCCCCCCCCCCCCCCC(=O)O)C(=O)O)NC(=O)[C@H](C)NC(=O)[C@H](C)NC(=O)[C@H](CCC(N)=O)NC(=O)CNC(=O)[C@H](CCC(=O)O)NC(=O)[C@H](CC(C)C)NC(=O)[C@H](Cc1ccc(O)cc1)NC(=O)[C@H](CO)NC(=O)[C@H](CO)NC(=O)[C@@H](NC(=O)[C@H](CC(=O)O)NC(=O)[C@H](CO)NC(=O)[C@@H](NC(=O)[C@H](Cc1ccccc1)NC(=O)[C@@H](NC(=O)CNC(=O)[C@H](CCC(=O)O)NC(=O)C(C)(C)NC(=O)[C@@H](N)Cc1cnc[nH]1)[C@@H](C)O)[C@@H](C)O)C(C)C)C(=O)N[C@@H](C)C(=O)N[C@@H](Cc1c[nH]c2ccccc12)C(=O)N[C@@H](CC(C)C)C(=O)N[C@H](C(=O)N[C@@H](CCCNC(=N)N)C(=O)NCC(=O)N[C@@H](CCCNC(=N)N)C(=O)NCC(=O)O)C(C)C |  | human, plasma | oral, 7 mg once daily, week 8, median | 1 |
| CNC(=O)n1ccc2cc(Oc3ccnc(NC(=O)c4ccc(C5CCN(CCO)CC5)cc4)c3)c(OCCOC)cc21 |  | healthy human, plasma | oral, 35 mg, high-fat meal, median | 4 |
| C[C@@H](Cn1ccc(-c2ccc(C#N)c(Cl)c2)n1)NC(=O)c1cc([C@@H](C)O)[nH]n1 |  | human, fasted | oral, 300 mg 14C-darolutamide solution, median | 1.01 |
| CC(C)c1nc(N(C)S(C)(=O)=O)nc(-c2ccc(F)cc2)c1/C=C/[C@@H](O)C[C@@H](O)CC(=O)O |  | human, plasma | oral, 10 mg, day 1, compound alone, DDI study | 4.5 |
| O=C(Nc1cnccc1Cl)N1CCN(Cc2ccc3c(c2)OC(F)(F)O3)CC1 |  | human healthy young men, plasma | oral, 75 mg once daily, day 1, multiple dose median | 1.25 |
| COc1cc(N2CCC(N3CCN(C)CC3)CC2)ccc1Nc1ncnc(Nc2ccccc2S(=O)(=O)C(C)C)n1 |  | human, plasma | oral, 50 mg, day 1 | 2.12 |
| Cc1ccc([C@@H]2O[C@H](CO)[C@@H](O)[C@H](O)[C@H]2O)cc1Cc1ccc(-c2ccc(F)cc2)s1 |  | human, maintenance hemodialysis patients | oral, 100 mg once daily, steady state, mean | 3.2 |
| O=C(COc1ccc(Cl)cc1)NC12CC(c3nnc([C@H]4C[C@@H](OC(F)(F)F)C4)o3)(C1)C2 |  | healthy human both sexes, plasma | oral, 100 mg once daily, day 1, median fasted | 23.8 |

Repeated from above:
| SMILES | test | test system | setting | tmax [h] |
| --- | --- | --- | --- | --- |
| CC(C)c1nc(N(C)S(C)(=O)=O)nc(-c2ccc(F)cc2)c1/C=C/[C@@H](O)C[C@@H](O)CC(=O)O |  | human, plasma | oral, 10 mg, day 1, compound alone, DDI study | 4.5 |
